# Experimental data of several laboratories.
# Compare with care: the assays were run in different laboratories. Values joined by “and” are separate records of one study, mostly repeats; a detail may differ.
# ACTA1 pyrene-labeled: Actin, alpha skeletal muscle, pyrene-labeled (ACTA1, Oryctolagus cuniculus, UniProt P68135)
# gag-pol reverse transcriptase: Gag-Pol polyprotein, reverse transcriptase (gag-pol, Human immunodeficiency virus 1, UniProt P03366)
# CHRNA1/CHRNB1/CHRND: CHRNA1/CHRNB1/CHRND (Homo sapiens, UniProt P02708+P11230+Q07001)
# Voltage-dependent P/Q-type calcium channel subunit alpha-1A: Voltage-dependent P/Q-type calcium channel subunit alpha-1A (Homo sapiens, UniProt O00555)
SMILES,target or system,test,system,conditions,scale,quantity,value
C#Cc1n[nH]c2c(-c3cn([C@@H](C)c4ccccc4)c(=O)[nH]c3=O)cc(F)cc12,"5'-AMP-activated protein kinase catalytic subunit alpha-2, with beta1 gamma1 (PRKAA2, Homo sapiens, UniProt P54646)","kinase activity, inhibitor",,100 nM,,inhibition,0.9%
O=c1ccc2ccccc2o1,central benzodiazepine receptor,radioligand binding,,10 µM,,inhibition,1.37%
COc1cc(Nc2ncc(F)c(Nc3ccc4c(n3)NC(=O)C(C)(C)O4)n2)cc(OC)c1OC,"PIK3CD (Homo sapiens, UniProt O00329)",KINOMEscan,,10 µM,,inhibition,62%
CO[C@]1([C@@H]2CSC(=O)N2CCCO)C[C@H]2C[C@@H](CC[C@H](C)/C=C\C=C\CC/C(C)=C\C(=O)O2)O1,ACTA1 pyrene-labeled,"actin polymerization, pyrene actin",,1 µM,relative to: vehicle,inhibition,21%
Clc1cccc(-c2c[nH]c3ncnc(N4CCOCC4)c23)c1,"STK3 (Homo sapiens, UniProt Q13188)","kinase activity, inhibitor, PhosphoSens kinetic",,"concentration not given, 2 h, added: ATP at Km",,inhibition,inhibited
C#Cc1n[nH]c2c(-c3cn(C(C)c4ccccn4)c(=O)[nH]c3=O)cc(F)cc12 (centres unmarked),"Phosphatidylinositol 4,5-bisphosphate 3-kinase catalytic subunit delta isoform, with p85 alpha (PIK3CD, Homo sapiens, UniProt O00329)","kinase activity, inhibitor",,1 µM,,inhibition,8.6%
O=C1CSC(c2cccc(Br)c2)N1c1nc(-c2ccc(S(=O)(=O)N3CCOCC3)cc2)cs1 (centres unmarked),gag-pol reverse transcriptase,,,4 µM,,inhibition,10.8%
C/C1=C/C(=O)O[C@@H]2C[C@@H](CC[C@H](C)/C=C\C=C\CC1)O[C@@](OCCc1ccccc1)([C@@H]1CSC(=O)N1)C2,ACTA1 pyrene-labeled,"actin polymerization, pyrene actin",,1 µM,relative to: vehicle,inhibition,94%
COCc1c(-c2cc3cc(C)cc(OC)c3s2)c2c(N)ncnn2c1CN1CCNC(=O)C1,phosphodiesterase 3,enzyme activity,,10 µM,,inhibition,-16%
COc1ccc(N2C(=O)N(c3c(C)cccc3Cl)Cc3cnc(Nc4ccc(C5CCN(C)CC5)cc4OC)nc32)nc1,"MAPKAPK2 (Homo sapiens, UniProt P49137)",kinase activity,,0.5 µM,,inhibition,5%
O=C(Nc1cccnn1)N1CCN([C@@H]2CCOc3cc(C(F)(F)F)ccc32)CC1,CHRNA1/CHRNB1/CHRND,binding,,"20 µM, muscle-type nicotinic receptor",,inhibition,0%
O=C(O[C@@H]1Cc2c(O)cc(O)cc2O[C@@H]1c1cc(=O)c(O)c2c(O)c(O)cc([C@H]3Oc4cc(O)cc(O)c4C[C@H]3O)c2c1)c1cc(O)c(O)c(O)c1,"PDIA3 (Homo sapiens, UniProt P30101)",di-eosin-GSSG reductase activity,,"20 µM, 15 min",,inhibition,inhibited
Cc1ncc(C)n2nc(/C=C/c3nc(N4CCCC4)cc(N4CCOCC4)n3)nc12,CHRNA1/CHRNB1/CHRND,radioligand binding,,10 µM,,inhibition,25%
CN(CCN1CCC(OC(=O)Nc2ccccc2-c2ccccc2)CC1)C(=O)c1ccc(CN2CCC(C(N)=O)CC2)cc1,rat AMPA receptor,radioligand binding,,"1 µM, added: [3H]AMPA 8.0 nM",,inhibition,-1%
CO[C@]1([C@@H]2CSC(=O)N2Cc2ccccc2)C[C@H]2C[C@@H](CC[C@H](C)/C=C\C=C\CC/C(C)=C\C(=O)O2)O1,ACTA1 pyrene-labeled,"actin polymerization, pyrene actin",,1 µM,relative to: vehicle,inhibition,67%
O=C1CSC(c2ccc(Br)cc2)N1c1nc(-c2ccc(S(=O)(=O)N3CCOCC3)cc2)cs1 (centres unmarked),gag-pol reverse transcriptase,,,4 µM,,inhibition,0%
CCN(C)C(=O)Oc1cccc([C@H](C)N(C)C)c1,Voltage-dependent P/Q-type calcium channel subunit alpha-1A,"ion current, antagonist",HEK293,10 µM,,inhibition,0%
CC[C@H](C)[C@H](NC(=O)[C@@H](NC(=O)[C@H](N)Cc1ccccc1)C(C)C)C(=O)N[C@@H](C)C(N)=O,"APP (Homo sapiens, UniProt P05067)","amyloid-beta aggregation, thioflavin T fluorescence",,"1.0 µM, 72 h, added: 2 µM amyloid-beta",,inhibition,72.6%
CN1CCN(c2cc(-c3ccncc3)c(-c3ccc4ccccc4c3)nn2)CC1,"LTB4R (Homo sapiens, UniProt Q15722)","antagonist, FLIPR",,10 µM,,inhibition,11.1%
O=C(Nc1cnccc1Cl)N1CCN(Cc2ccc3c(c2)OC(F)(F)O3)CC1,"GNRHR (Homo sapiens, UniProt P30968)",radioligand binding,,concentration not given,,inhibition,0% and 8%
O=C1CSC(c2ccc(F)cc2)N1c1nc(-c2ccc(S(=O)(=O)N3CCOCC3)cc2)cs1 (centres unmarked),gag-pol reverse transcriptase,,,4 µM,,inhibition,12%
CO[C@]1([C@@H]2CSC(=O)N2C2CCCC2)C[C@H]2C[C@@H](CC[C@H](C)/C=C\C=C\CC/C(C)=C\C(=O)O2)O1,ACTA1 pyrene-labeled,"actin polymerization, pyrene actin",,1 µM,relative to: vehicle,inhibition,49%
O=C1CSC(c2cccc(Br)c2)N1c1nc(-c2ccc(S(=O)(=O)N3CCCC3)cc2)cs1 (centres unmarked),gag-pol reverse transcriptase,,,4 µM,,inhibition,12.6%
CCN1C(=O)SCC1C1(OC)CC2CC(CCC(C)C=CC=CCCC(C)=CC(=O)O2)O1 (centres unmarked),ACTA1 pyrene-labeled,"actin polymerization, pyrene actin",,1 µM,relative to: vehicle,inhibition,18%
C[C@H](C(=O)N[C@H]1COc2ccccc2[C@@H]1S(C)(=O)=O)c1ccc(F)cc1,"GABBR1 (Homo sapiens, UniProt Q9UBS5)",activity,,"10 µM, Eurofins selectivity panel",,inhibition,11%
COc1cccc(C2SCC(=O)N2c2cccc(S(=O)(=O)Nc3nccs3)c2)c1 (centres unmarked),gag-pol reverse transcriptase,,,4 µM,,inhibition,33.2%
CC(=O)Nc1c2sscc-2[nH]c1=O,"Isoleucine--tRNA ligase (ileS, Staphylococcus aureus, UniProt Q5HGN8)",ATP-pyrophosphate exchange,,up to 100 µM,,inhibition,no inhibition
CN(C(=O)n1cnc(-c2ccc[n+]([O-])c2)c1)C1CCCCC1,"ESR2 (Homo sapiens, UniProt Q92731)",radioligand binding,,"10 µM, added: [3H]estradiol",,inhibition,-1%
Cn1cc(-c2cccc(N3CCc4c(sc5c4CC(C)(C)C5)C3=O)c2CO)cc(Nc2ccncn2)c1=O,"Protein kinase C beta type, isoform beta-I (PRKCB, Homo sapiens, UniProt P05771)","kinase activity, inhibitor, SelectScreen kinase profiling",,"1 µM, added: ATP at apparent Km",,inhibition,4%
Cn1cccc1-c1cccnc1,"DRD1 (Homo sapiens, UniProt P21728)",binding,,50 µM,,inhibition,-17.2%
N.N.O=C([O-])C1(C(=O)[O-])CCC1.[Pt+2],Voltage-dependent P/Q-type calcium channel subunit alpha-1A,antagonist,,10 µM,,inhibition,10%
CCNC(=O)[C@H]1O[C@@H](n2cnc3c(N)ncnc32)[C@H](O)[C@@H]1O,rat adenosine A2 receptor,binding,,1 × 10 µM,,inhibition,96.3%
O=C1CSC(c2c(Cl)cccc2Cl)N1c1nc(-c2ccc(S(=O)(=O)N3CCOCC3)cc2)cs1 (centres unmarked),gag-pol reverse transcriptase,,,4 µM,,inhibition,2.48%
O=C(Nc1cccnn1)N1CCC(=Cc2cccc(Oc3ccc(C(F)(F)F)cn3)c2)CC1,"Vitamin D3 receptor (VDR, Homo sapiens, UniProt P11473)","radioligand binding, inhibitor",,"50 µM, human, added: [3H]1alpha,25-dihydroxyvitamin D3",,inhibition,-6%
COc1cc2c(Oc3ccc4[nH]c(C)cc4c3F)ccnc2cc1OCC1(N)CC1,,,paediatric refractory sarcoma patients,8 mg,,TBIL elevation incidence,0%

# For quick reference, copied from above:
SMILES,target or system,test,system,conditions,scale,quantity,value
CO[C@]1([C@@H]2CSC(=O)N2Cc2ccccc2)C[C@H]2C[C@@H](CC[C@H](C)/C=C\C=C\CC/C(C)=C\C(=O)O2)O1,ACTA1 pyrene-labeled,"actin polymerization, pyrene actin",,1 µM,relative to: vehicle,inhibition,67%
O=C1CSC(c2ccc(Br)cc2)N1c1nc(-c2ccc(S(=O)(=O)N3CCOCC3)cc2)cs1 (centres unmarked),gag-pol reverse transcriptase,,,4 µM,,inhibition,0%
CCN(C)C(=O)Oc1cccc([C@H](C)N(C)C)c1,Voltage-dependent P/Q-type calcium channel subunit alpha-1A,"ion current, antagonist",HEK293,10 µM,,inhibition,0%
